Experimental data gathered from unrelated publications.
Lines come from different studies, so protocols differ. ± marks the error that the study gave.
GRPR: Gastrin-releasing peptide receptor (GRPR, Homo sapiens, UniProt P30550)
Sequence of UniProt P30550 (whole entry, looked up): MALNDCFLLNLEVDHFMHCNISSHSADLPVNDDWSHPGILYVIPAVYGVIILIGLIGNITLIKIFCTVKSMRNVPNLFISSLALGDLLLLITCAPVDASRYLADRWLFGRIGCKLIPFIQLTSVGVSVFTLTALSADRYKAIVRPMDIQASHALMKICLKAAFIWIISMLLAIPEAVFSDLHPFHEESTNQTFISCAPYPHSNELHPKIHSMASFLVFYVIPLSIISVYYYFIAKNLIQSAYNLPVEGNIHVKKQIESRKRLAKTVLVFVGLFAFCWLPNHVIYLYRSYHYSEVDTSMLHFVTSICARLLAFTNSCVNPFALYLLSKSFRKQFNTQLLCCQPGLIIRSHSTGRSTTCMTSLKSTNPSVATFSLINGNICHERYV
SLC6A3: Sodium-dependent dopamine transporter (SLC6A3, Homo sapiens, UniProt Q01959)
Sequence of UniProt Q01959 (whole entry, looked up): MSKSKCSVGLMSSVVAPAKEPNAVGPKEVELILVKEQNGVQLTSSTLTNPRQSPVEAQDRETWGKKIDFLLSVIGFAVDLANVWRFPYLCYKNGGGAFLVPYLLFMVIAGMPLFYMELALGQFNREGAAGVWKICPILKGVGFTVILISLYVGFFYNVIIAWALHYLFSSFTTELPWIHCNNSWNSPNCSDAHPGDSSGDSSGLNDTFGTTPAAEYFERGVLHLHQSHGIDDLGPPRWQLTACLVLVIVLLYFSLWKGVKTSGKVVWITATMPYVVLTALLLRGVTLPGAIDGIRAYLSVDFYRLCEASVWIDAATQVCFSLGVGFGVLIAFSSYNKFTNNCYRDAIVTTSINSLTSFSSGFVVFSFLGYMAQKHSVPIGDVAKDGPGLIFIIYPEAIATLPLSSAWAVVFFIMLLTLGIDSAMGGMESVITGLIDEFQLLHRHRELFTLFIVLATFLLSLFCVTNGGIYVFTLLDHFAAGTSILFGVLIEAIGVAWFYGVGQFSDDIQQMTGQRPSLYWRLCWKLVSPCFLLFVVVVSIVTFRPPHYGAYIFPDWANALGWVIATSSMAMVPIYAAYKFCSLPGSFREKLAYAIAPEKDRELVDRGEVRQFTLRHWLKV
Sequence of UniProt Q13936 (whole entry, looked up): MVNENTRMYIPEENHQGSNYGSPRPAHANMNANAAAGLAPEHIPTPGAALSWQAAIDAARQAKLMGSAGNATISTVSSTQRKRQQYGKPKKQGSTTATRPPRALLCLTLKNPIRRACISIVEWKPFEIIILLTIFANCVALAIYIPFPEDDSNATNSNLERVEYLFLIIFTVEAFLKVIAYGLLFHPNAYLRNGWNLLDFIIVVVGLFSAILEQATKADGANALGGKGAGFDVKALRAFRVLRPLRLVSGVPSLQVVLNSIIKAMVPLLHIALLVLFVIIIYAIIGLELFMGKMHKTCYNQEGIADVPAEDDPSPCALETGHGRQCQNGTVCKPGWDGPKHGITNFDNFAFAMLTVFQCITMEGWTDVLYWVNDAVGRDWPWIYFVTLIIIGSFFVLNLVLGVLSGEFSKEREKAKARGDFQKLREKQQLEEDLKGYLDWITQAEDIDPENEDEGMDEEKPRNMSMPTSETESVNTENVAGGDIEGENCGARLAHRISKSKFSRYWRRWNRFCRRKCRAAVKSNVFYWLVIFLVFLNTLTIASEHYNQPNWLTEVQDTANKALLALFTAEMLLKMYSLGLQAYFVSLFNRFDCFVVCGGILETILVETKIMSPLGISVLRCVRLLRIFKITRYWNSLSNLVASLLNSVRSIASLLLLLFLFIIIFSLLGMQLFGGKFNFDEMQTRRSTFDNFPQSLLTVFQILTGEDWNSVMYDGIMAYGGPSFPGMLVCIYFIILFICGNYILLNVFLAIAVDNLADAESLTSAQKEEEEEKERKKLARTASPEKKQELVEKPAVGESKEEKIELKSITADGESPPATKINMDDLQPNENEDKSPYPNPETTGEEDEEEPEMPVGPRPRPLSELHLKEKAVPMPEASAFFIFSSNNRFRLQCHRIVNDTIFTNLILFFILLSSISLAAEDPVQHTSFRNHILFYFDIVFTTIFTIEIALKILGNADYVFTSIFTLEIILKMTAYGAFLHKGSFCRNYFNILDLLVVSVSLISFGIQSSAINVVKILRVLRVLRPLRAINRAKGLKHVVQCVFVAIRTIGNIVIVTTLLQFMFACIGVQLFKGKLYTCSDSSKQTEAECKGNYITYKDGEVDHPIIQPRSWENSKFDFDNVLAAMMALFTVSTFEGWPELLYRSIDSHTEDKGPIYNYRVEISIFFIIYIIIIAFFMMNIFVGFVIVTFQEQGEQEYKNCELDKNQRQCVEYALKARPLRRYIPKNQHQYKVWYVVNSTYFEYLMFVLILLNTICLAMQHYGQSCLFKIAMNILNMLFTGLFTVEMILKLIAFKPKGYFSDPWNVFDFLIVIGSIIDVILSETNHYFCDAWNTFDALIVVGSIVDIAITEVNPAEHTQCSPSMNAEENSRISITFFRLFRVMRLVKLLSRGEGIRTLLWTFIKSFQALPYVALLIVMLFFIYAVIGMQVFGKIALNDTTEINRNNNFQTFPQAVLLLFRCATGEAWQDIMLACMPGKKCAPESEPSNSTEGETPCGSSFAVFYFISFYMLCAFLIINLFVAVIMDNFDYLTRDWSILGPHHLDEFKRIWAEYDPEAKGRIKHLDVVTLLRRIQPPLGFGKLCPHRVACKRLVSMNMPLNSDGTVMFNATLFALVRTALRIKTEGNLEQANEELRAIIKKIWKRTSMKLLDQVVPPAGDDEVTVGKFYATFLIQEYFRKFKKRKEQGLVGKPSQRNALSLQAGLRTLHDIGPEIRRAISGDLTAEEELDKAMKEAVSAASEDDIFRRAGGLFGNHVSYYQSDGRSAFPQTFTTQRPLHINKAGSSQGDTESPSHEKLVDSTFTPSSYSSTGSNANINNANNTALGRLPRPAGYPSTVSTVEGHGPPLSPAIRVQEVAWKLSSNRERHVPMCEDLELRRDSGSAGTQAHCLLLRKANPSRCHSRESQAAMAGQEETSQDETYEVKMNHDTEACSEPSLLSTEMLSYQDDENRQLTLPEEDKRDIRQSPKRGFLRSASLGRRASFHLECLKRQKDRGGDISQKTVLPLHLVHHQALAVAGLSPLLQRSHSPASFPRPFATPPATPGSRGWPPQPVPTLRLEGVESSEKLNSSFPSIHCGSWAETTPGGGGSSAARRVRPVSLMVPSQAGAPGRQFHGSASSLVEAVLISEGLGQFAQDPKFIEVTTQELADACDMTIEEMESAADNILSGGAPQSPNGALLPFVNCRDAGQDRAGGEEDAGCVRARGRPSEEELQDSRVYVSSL
Sequence of UniProt P21728 (whole entry, looked up): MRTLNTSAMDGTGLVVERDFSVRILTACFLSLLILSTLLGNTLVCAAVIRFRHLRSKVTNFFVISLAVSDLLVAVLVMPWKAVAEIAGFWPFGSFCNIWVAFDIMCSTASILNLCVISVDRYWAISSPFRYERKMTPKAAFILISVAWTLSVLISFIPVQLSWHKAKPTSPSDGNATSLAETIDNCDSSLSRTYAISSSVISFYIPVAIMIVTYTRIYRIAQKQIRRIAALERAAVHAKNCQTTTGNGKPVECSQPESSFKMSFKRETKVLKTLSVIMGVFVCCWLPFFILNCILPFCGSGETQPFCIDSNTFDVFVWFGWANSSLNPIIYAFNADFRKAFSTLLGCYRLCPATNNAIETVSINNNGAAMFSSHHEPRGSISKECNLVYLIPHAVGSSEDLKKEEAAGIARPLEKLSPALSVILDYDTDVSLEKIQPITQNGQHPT
Sequence of UniProt P00516 (whole entry, looked up): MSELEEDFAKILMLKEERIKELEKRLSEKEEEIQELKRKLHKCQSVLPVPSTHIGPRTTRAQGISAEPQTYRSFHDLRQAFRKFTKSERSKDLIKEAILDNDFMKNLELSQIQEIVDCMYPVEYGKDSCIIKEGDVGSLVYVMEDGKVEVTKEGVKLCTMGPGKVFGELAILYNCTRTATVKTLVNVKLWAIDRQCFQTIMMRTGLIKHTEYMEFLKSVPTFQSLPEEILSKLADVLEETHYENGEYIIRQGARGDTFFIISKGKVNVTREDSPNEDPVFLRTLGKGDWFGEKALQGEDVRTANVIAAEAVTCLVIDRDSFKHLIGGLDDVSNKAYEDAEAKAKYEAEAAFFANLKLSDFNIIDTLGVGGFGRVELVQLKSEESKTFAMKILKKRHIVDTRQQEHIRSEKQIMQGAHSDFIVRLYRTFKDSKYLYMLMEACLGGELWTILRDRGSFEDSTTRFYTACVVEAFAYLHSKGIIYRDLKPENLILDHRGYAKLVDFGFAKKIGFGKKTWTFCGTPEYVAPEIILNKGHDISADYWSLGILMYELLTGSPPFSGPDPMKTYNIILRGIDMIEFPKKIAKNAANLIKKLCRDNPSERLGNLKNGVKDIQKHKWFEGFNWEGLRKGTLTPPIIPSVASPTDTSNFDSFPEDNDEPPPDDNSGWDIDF
Sequence of UniProt Q8WTS6 (whole entry, looked up): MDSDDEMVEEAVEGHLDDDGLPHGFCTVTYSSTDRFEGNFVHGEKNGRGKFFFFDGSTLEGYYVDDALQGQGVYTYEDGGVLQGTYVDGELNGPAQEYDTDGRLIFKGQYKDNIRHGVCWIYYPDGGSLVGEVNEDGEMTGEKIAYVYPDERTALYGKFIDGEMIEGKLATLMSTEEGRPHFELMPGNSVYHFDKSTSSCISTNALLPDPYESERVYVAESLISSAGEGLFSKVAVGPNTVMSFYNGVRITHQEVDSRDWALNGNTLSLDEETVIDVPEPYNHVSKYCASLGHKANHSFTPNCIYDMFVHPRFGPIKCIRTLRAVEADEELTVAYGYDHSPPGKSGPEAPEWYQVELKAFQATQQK
Sequence of UniProt P00441 (whole entry, looked up): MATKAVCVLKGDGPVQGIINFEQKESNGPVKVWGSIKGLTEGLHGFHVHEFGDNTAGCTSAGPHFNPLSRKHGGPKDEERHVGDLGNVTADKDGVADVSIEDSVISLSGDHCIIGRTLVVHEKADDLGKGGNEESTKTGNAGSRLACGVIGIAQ

The IC50 of CC(C)C[C@H]1CN[C@H](C(N)=O)CSSC[C@@H](N)C(=O)N[C@@H](CCC(N)=O)C(=O)N[C@@H](Cc2c[nH]c3ccccc23)C(=O)N[C@@H](C)C(=O)N[C@@H](C(C)C)C(=O)N[C@H](C)C(=O)N[C@@H](Cc2c[nH]cn2)C(=O)N1 is reported as 2 µM (GRPR; inositol phosphate generation, antagonist; Balb 3T3 expressing GRPR; added: GRP 1 nM).
With CSCC[C@H](NC(=O)[C@H](CC(C)C)NC(=O)[C@H](Cc1c[nH]cn1)NC(=O)CNC(=O)[C@@H](NC(=O)[C@H](C)NC(=O)[C@H](Cc1c[nH]c2ccccc12)NC(=O)[C@H](CCC(N)=O)NC(=O)[C@H](CC(N)=O)NC(=O)[C@H](CC(=O)O)NC(=O)[C@H](CCCNC(=N)N)NC(=O)CNC(=O)CNC(=O)CNC(=O)C(C)F)C(C)C)C(N)=O (some centres unmarked) the IC50 was 0.0559 µM (GRPR; ligand displacement, radioligand).
The IC50 of NC(=S)N/N=C/c1cc(Cl)ccc1O is reported as 0.79 µM (SOD1 (Homo sapiens, UniProt P00441); enzyme activity, inhibitor; HeLa; 24 h).
For CCC1(CC)C(=O)N(c2cccc(CN3CCN(Cc4ccc(Br)cc4)CC3)c2)C1=O, the IC50 was over 10 µM (Dipeptidyl peptidase 2 (Homo sapiens, UniProt Q9UHL4); cell-free assay, inhibitor).
With O=C(c1cccc(S(=O)(=O)N2CCc3ccccc3C2)c1)N1CCC(OCc2ccccc2)CC1 the IC50 was 2.87 µM (CACNA1C (Homo sapiens, UniProt Q13936); calcium signal, fluorescence).
CCOC(=O)c1cc2cc(-c3cc(C(=O)NCc4ccc(C(=O)O)cc4)nn3C)ccc2[nH]1 has an IC50 of 0.0093 µM (Collagenase 3 (MMP13, Homo sapiens, UniProt P45452); enzyme activity, inhibitor).
O=C(NCCCN1CCC(Cc2ccccc2)CC1)c1cc2ccccc2[nH]1 gave an IC50 of over 10 µM (SLC6A3; transporter uptake, inhibitor, radiometric).
CNCc1c(OCc2ccc(F)cc2)ccc2ccccc12 has an IC50 of 2.56 µM (SLC6A3; transporter uptake, inhibitor, radiometric).
O=C(COc1ccc(Cl)c(Cl)c1)Nc1ccc[n+](Cc2ccc(Cl)c(Cl)c2)c1 gave an IC50 of 0.069 µM (TRPV4 (Homo sapiens, UniProt Q9HBA0); calcium signal, antagonist).
For N=C(N)NCCCC(N)C(=O)NCC(=O)NC(CCCNC(=N)NCCCSCC1OC(n2cnc3c(N)ncnc32)C(O)C1O)C(N)=O (centres unmarked), the IC50 was over 100 µM (SETD7 (Homo sapiens, UniProt Q8WTS6); enzyme activity, inhibitor, fluorescence).
With Cc1cc2c(NC(=O)N[C@@H]3CC(C)(C)Oc4cc(C(F)(F)F)ccc43)c(C)ccc2cn1 the IC50 was 0.107 ± 0.0183 µM (TRPV1 (Homo sapiens, UniProt Q8NER1); acid-evoked calcium influx, antagonist; HEK293, human; pH 5).
For COC(=O)[C@@H](CS)N1C(=O)c2ccc(N(C)C)cc2C1=O, the IC50 was 0.18 µM (VIM-2 (Escherichia coli, UniProt Q5U7L7); enzyme activity, inhibitor; pH 7).
C[C@@H](NC(=O)CCCCCNC(=O)c1ccc(-c2ccnc(N)n2)s1)C(=O)NCCCCCC(=O)N[C@H](CCCNC(=N)N)C(=O)N[C@H](CCCNC(=N)N)C(=O)N[C@H](CCCNC(=N)N)C(=O)N[C@H](CCCNC(=N)N)C(=O)N[C@H](CCCNC(=N)N)C(=O)N[C@H](CCCNC(=N)N)C(=O)N[C@H](CCCCN)C(N)=O has an IC50 of 0.0646 µM (cGMP-dependent protein kinase 1, isoform alpha (PRKG1, Bos taurus, UniProt P00516); inhibitor, fluorescence intensity displacement; added: ARC-1059 probe and cGMP 40 µM).
With COc1ccc2c(c1)c1c(n2CO)CN2CCc3cc(OC)c(OCc4ccccc4)cc3C2C1 (centres unmarked) the IC50 was 1.61 µM (DRD1 (Homo sapiens, UniProt P21728); calcium signal, antagonist).

Some of these lines once more:
For CCC1(CC)C(=O)N(c2cccc(CN3CCN(Cc4ccc(Br)cc4)CC3)c2)C1=O, the IC50 was over 10 µM (Dipeptidyl peptidase 2 (Homo sapiens, UniProt Q9UHL4); cell-free assay, inhibitor).
With Cc1cc2c(NC(=O)N[C@@H]3CC(C)(C)Oc4cc(C(F)(F)F)ccc43)c(C)ccc2cn1 the IC50 was 0.107 ± 0.0183 µM (TRPV1 (Homo sapiens, UniProt Q8NER1); acid-evoked calcium influx, antagonist; HEK293, human; pH 5).
